Results pooled from the literature.
A part holds a random share of what one study measured.

Block 1
Target: Histone acetyltransferase KAT6A, winged helix 2, GST fusion (KAT6A, Homo sapiens, UniProt Q92794, residues 85-181)
Method: protein binding microarray
Molecule type: double-stranded DNA, one strand shown
Medium: in vitro
Tested at: not given
Notes: 8-mer, flanks averaged, mean of 2 arrays, mostly near background
Baseline: not given
Reading: higher = stronger binding
Target sequence (chain): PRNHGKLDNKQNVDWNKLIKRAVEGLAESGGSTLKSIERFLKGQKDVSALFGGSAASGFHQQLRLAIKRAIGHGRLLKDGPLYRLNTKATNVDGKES
`TCAGCACA` has an E-score of 0.0776.
`CGCGCGCC` gave an E-score of 0.23.
The E-score of `CGGTGGAA` is reported as 0.0376.
For `AAAAACAC`, the E-score was 0.0923.
`AAGGACGC` has an E-score of -0.125.
`CATGCGCA` has an E-score of 0.0675.
With `GCTCCCTA` the E-score was -0.124.
For `GACTACCA`, the E-score was -0.174.
For `ATCGCCCA`, the E-score was 0.0249.
`CACCGTAG` has an E-score of -0.0385.
The E-score of `TACATAAA` is reported as -0.159.
`GTAGCGTA` has an E-score of -0.00332.
`CCAATCAG` gave an E-score of -0.0709.
The E-score of `CATTAGGC` is reported as -0.0277.
With `GACCCCCC` the E-score was 0.0255.
`TAGATTGA` has an E-score of 0.0278.
For `CCCATCTA`, the E-score was -0.145.
The E-score of `AGACGGAG` is reported as 0.0781.
`GATGTAAA` has an E-score of 0.00381.
`ATACTCTA` has an E-score of -0.0381.
`CGTGCGTC` has an E-score of 0.203.
`CGGTAAAA` gave an E-score of 0.0303.
`ACGCGCGA` gave an E-score of 0.104.
`CTTATCAA` gave an E-score of 0.149.
`CACGGATA` has an E-score of 0.00417.

Block 2
Target: RNA binding protein fox-1 homolog 2, RRM domain, GST-SBP tag (RBFOX2, Homo sapiens, UniProt O43251-10, residues 100-194)
Method: RNA Bind-n-Seq
Molecule type: RNA
Medium: in vitro
Tested at: 365 nM
Notes: natural RNA segment, single round, ends assumed
Baseline: no-protein control
Reading: higher = stronger binding
Constant ends, left off below: GGGAGUUCUACAGUCCGACGAUC … UGGAAUUCUCGGGUGCCAA
Target sequence (chain): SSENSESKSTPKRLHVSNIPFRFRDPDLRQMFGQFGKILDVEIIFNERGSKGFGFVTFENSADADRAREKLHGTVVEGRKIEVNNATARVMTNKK
For `AAGAAAAGGACACAGAAAGGCGAACGGAAGCGAUAACCUUGGCCCACUCUGCUCCUUCCACCCAUGAAUUGUGUGUCUGUGUAUUUAAGAGAACUGAGACUAAUGUAUUU`, “RBNS enrichment (R)” read 0.63.
`GUACUUACUGAGGUCCAUGUAUUAAUAAGAGGUCAGUCUGUACAAAAAUCUAAAGAUUUUUUCACUUUCUUUGUAUUAUUAUAUAUGAGUAACUUUUGAUACCAGAAUAA`: “RBNS enrichment (R)” 0.523.
For `GUUGAACUCUCUUCUGUACCUCUGUGCUCUGUGUCUGUGCAUGAAGGCUCAGUCUUUAGAGGCACUCCCUCUAGUUGAUUAGCACUGUCUUCUGUGGAGUUUGGUUCAAA`, “RBNS enrichment (R)” read 16.3.
`CUAGGUGGCCAAGGCUUCCUGCAUUGCUUCCCUGUGAGUCCAAGGCCUUCCCCCACCACUGGGCAGAGGCUGGACAGCACGGACUUCUAGAGAGAGCCGCGUUGCCAGUU`: “RBNS enrichment (R)” 0.311.
`CCAGAUACCAUGAUGCUGAGCCCGGAAACUCCACAUCCUGUGGGACCUGGGCCAUAGUCAUUCUGCCUGCCCUGAAAGUCCCAGAUCAAGCCUGCCUCAAUCAGUAUUCA`: “RBNS enrichment (R)” 0.424.
`UACUAGGAGUGAGACCAGCUUCUGGCAACUGCCCCAGCUCCAGGCCAUCCCAUAGCCCCUCCUCUUCUGGCUGCCCCCAAUGCCCCGAGGCCUGGGGAGCCCCCAGCUCA` — result for “RBNS enrichment (R)”: 0.257.
`CAUCCCAGCCCCCCAAGUGACUGUCUGCCCCGUCCCCGCUCCGCCCGUGACUGGGCAUCCCUCACCAGCUACUUUGACAUGCACACUGCCUGACGCUUCUCCACCCAGUG` — result for “RBNS enrichment (R)”: 0.896.
`GUUGUGUUAAUAUUUAGAAGAAGAUGUAUAUCUUCCAGAUUUUGUUAUAUAUUUGGCAUAAAAUACGGCUUACGUUGCUUAAGAUUCUCAGGGAUAAACUUCCUUUUGCU`: “RBNS enrichment (R)” 0.684.

Block 3
Target: Ras GTPase-activating protein-binding protein 1, C-terminal RGG region (G3BP1, Homo sapiens, UniProt Q13283)
UniProt Q13283, sequence (whole entry, looked up): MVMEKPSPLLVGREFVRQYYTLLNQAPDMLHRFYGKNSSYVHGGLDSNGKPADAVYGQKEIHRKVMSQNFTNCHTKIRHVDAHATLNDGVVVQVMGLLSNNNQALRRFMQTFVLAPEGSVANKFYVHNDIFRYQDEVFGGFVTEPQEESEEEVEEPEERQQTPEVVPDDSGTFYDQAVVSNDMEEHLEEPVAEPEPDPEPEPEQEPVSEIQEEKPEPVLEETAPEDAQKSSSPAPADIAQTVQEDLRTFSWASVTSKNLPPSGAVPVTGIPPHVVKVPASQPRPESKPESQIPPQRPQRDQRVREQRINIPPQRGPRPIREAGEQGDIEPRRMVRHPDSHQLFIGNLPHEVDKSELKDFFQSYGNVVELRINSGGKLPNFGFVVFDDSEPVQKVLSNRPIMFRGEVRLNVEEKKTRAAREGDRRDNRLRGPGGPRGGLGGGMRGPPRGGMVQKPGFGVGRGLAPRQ
Method: RNA Bind-n-Seq
Molecule type: RNA
Medium: in vitro
Tested at: 1 µM
Notes: whole 134-nt RNA, ends assumed
Together with: 150 mM KCl
Baseline: input library
Reading: higher = stronger binding
Constant ends, left off below: GGGAGUUCUACAGUCCGACGAUC … UGGAAUUCUCGGGUGUCAAGG
`ACCAUGCAGGUGGGCAUCUUUGGGAAGUGGGGCAAGAAAGGGAUAGGGAGGGGGGUAACACUUUGGGAACAGGUGGUCCCAGGUCGUUUC` gave a log2 enrichment of -1.
`CCUGUGCUACACAUCGUAUGUACCGAAUCGGGGAAAGGGGUUUUUUUGGGGUUUUUGGGGAAAGUAUUAUGUUACGCCGUUCGGAUCUGC` gave a log2 enrichment of 0.337.
For `UCAAGUCCUGUGCUACACAUCGUAUGUACCGAAUCGGGGCCGGCCGGGCCGGGGAAAGUAUUAUGUUACGCCGUUCGGAUCUGCACUUCC`, the log2 enrichment was -1.34.
The log2 enrichment of `CCUGUGCUACACAUCGUAUGUACCGAAUCGGGGAAAAAGGGGUUUGGGGUUUUUUUGGGGAAAGUAUUAUGUUACGCCGUUCGGAUCUGC` is reported as 1.24.
`CAAAAACAACACGCACCCACACAGACACAGAGGGAAGGGGUUGGGAUGGGGACAGGGUGCACAGCAGGGCGGGGUAGGACCCCAGCCCCU` has a log2 enrichment of -0.627.
`GCAGGAAGUAAAAUCAAAUGGAAAUGCUUCGGAUAGUGGCAGGGGUGGGGGUUGCUAAGGAAAGGGUGGGAUGGGAGUGGGUAAAGAGUU` gave a log2 enrichment of 1.93.
`UGGGAGGUGGAUUUUGCUUAUUUUUUUAGCUCAUUUCCAGGGGUGGGAAUUUUUUUUUAAUAUGUGUCAUGAAUAAAGUUGUUUUUGAAA` has a log2 enrichment of 3.36.
With `AGUCCUGUGCUACACAUCGUAUGUACCGAAUCAAAUUUAAAUUUAAACCCCCCCAAAAAAGUAUUAUGUUACGCCGUUCGGAUCUGCACU` the log2 enrichment was -0.638.
With `GCAGGAAGUAAAAACAACUGGAAAUGCUUCGGAUAGUGGCAGGGGUGGGGGUUGCUAAGGAAAGGGUGGGAUGGGAGUGGGUAAAGAGUU` the log2 enrichment was 1.77.

Block 4
Target: RING finger protein unkempt homolog, zinc fingers 1-6, GST-SBP tag (UNK, Homo sapiens, UniProt Q9C0B0, residues 30-357)
UniProt Q9C0B0, sequence (30-357, looked up): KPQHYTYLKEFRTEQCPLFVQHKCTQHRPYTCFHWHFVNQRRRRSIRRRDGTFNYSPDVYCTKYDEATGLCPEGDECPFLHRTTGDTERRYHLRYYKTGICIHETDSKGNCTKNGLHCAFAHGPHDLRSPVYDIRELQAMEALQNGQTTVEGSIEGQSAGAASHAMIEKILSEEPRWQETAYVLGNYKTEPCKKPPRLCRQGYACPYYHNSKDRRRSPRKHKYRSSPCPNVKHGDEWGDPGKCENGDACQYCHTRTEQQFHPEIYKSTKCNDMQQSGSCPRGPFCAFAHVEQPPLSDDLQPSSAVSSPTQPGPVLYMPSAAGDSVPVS
Method: RNA Bind-n-Seq
Molecule type: RNA
Medium: in vitro
Tested at: not given
Notes: RNA with constant flanks, human-mouse chimeric sites, ends assumed
Baseline: input RNA pool
Reading: higher = stronger binding
Constant ends, left off below: GGGAGUUCUACAGUCCGACGAUC … CAACAGAGGAUUGAGCAUCA
The bound/input enrichment of `UGUGAACUGAAAGGUGUUUGGGGUCUACAAGAUGACUUUUCCUGGCACAUAUUCCAAAGCAAAGACUUUGUUGCCUGCUGCUUAUUGUCUAAUUUACAGGGAUAUUUAAUUUUGUCAGGU` is reported as 0.182 ratio.
`UACUACUAUGAUGGUGAUAUUGGCAAUUAUUAUUAUGGCCAGGGUCAUCCCAUGAAGCCUCAUAGAAUCCGGAUGACCCAUAACUUGCUGCUAAAUUAUGGCUUAUACCGAAAAAUGGAA` has a bound/input enrichment of 0.219 ratio.
For `CGCUUGGAUGAGGCGGGUGUUACUGAUGAAGUGCUAGAUUCUGCCAUGCAAGCCUUCCUUCUGGAGGUCAUUGUUAAGCAUGGGGAGCCGGCACCUUAUUUAUGUAACAAAGAUCCGUUU`, the bound/input enrichment was 0.11 ratio.
`UCAGAAGCUGUGCUGGGUCACUUUUCAUAUCCAGAUCCUUCACAGUGGACAGAUGAAGAACUGGGAAUCCCUCCUGAUGAUGAAGACUGACACUGUAAACUCUCUGGACGAGUAGGAGCA` has a bound/input enrichment of 0.411 ratio.
The bound/input enrichment of `CCUGCUCAGAUCACCAUGAAAGUAAUCCAAGGCCUAUACAGUGGGGUCACCACAGUGGAACUGGACACCCUGGCUGCUGAAACAGCUGCGACCUUGACCACGAAGCACCCUGACUAUGCC` is reported as 0.129 ratio.
The bound/input enrichment of `UCCUUGGACCCCAGUCAUAUAGGUGACCUGCAAAAAGCAGACACCAGUAGUCAAGGUGCUUUAGUGUUUCUCUCAAAGGACUACGAGAUAGAAAAUCAAAAUCCCCUGGCCUCUCCUACG` is reported as 1.43 ratio.
The bound/input enrichment of `CGCUGGCGUUGAACUGUGGACUCUGAUGGCCUCCAUCUCUCAGGCACGUGUGCCUUCUCUUAGUCCCUUCUGGGUUGAUGUUAUGAAUCUCAGUACUGUGGUUUGAAAGCACCAGCUUUG` is reported as 0.555 ratio.
With `AUAAAAGCUAUGUUGAGUGGUCCAGGUCAGUUUGCUGAGAAUGAAACCAACGAGGUCAAUUUUAGAGAGAUCCCCUCACAUGUGCUAUCAAAAGUGUGCAUGUAUUUUACCUACAAGGUC` the bound/input enrichment was 0.337 ratio.

Some of these lines once more (block 4):
With `AUAAAAGCUAUGUUGAGUGGUCCAGGUCAGUUUGCUGAGAAUGAAACCAACGAGGUCAAUUUUAGAGAGAUCCCCUCACAUGUGCUAUCAAAAGUGUGCAUGUAUUUUACCUACAAGGUC` the bound/input enrichment was 0.337 ratio.
The bound/input enrichment of `CGCUGGCGUUGAACUGUGGACUCUGAUGGCCUCCAUCUCUCAGGCACGUGUGCCUUCUCUUAGUCCCUUCUGGGUUGAUGUUAUGAAUCUCAGUACUGUGGUUUGAAAGCACCAGCUUUG` is reported as 0.555 ratio.
`UCAGAAGCUGUGCUGGGUCACUUUUCAUAUCCAGAUCCUUCACAGUGGACAGAUGAAGAACUGGGAAUCCCUCCUGAUGAUGAAGACUGACACUGUAAACUCUCUGGACGAGUAGGAGCA` has a bound/input enrichment of 0.411 ratio.
`UACUACUAUGAUGGUGAUAUUGGCAAUUAUUAUUAUGGCCAGGGUCAUCCCAUGAAGCCUCAUAGAAUCCGGAUGACCCAUAACUUGCUGCUAAAUUAUGGCUUAUACCGAAAAAUGGAA` has a bound/input enrichment of 0.219 ratio.
The bound/input enrichment of `UCCUUGGACCCCAGUCAUAUAGGUGACCUGCAAAAAGCAGACACCAGUAGUCAAGGUGCUUUAGUGUUUCUCUCAAAGGACUACGAGAUAGAAAAUCAAAAUCCCCUGGCCUCUCCUACG` is reported as 1.43 ratio.
